# Published values collected from several papers.
# Compare with care: the assays were run in different laboratories. Values joined by “and” are separate records of one study, mostly repeats; a detail may differ. ± marks the error that the study gave.
SMILES,tested on,test,system,conditions,how to read,quantity,value
CC(=O)O[C@H]1C(=O)[C@@]2(C)[C@H]([C@H](OC(=O)c3ccccc3)[C@]3(O)C[C@H](OC(=O)[C@H](O)[C@@H](NC(=O)c4ccccc4)c4ccccc4)C(C)=C1C3(C)C)[C@]1(OC(C)=O)CO[C@@H]1C[C@@H]2O,tubulin,"tubulin polymerization, inhibitor",MDA-MB-231,"50, 100, 500 ppm",,geometric mean inhibition,61.7%
CCS(=O)(=O)c1nc(C2CC2)cc(C(F)(F)F)n1,transportin-1/2,"FUS nuclear import, high content imaging",HeLa Kyoto reporter,"0.158 µM, 2 h",,cells with nuclear reporter,93.5% and 91.9%
COc1ccc(C(=O)COc2ccc(N3C(=O)[C@@H]4[C@@H]5C=C[C@@H]([C@H]6C[C@@H]56)[C@@H]4C3=O)cc2)cc1,lanosterol synthase (mouse),,Mut6,"0.1 µM, 24 h",,peak EPC level,390 ng/mg protein
Cn1c(=O)c(F)c(Nc2ccc(I)cc2F)c2c(=O)n(C[C@@H](O)CO)cnc21,IDO1 human,inhibitor,A-431,"1 µM, added: IFN-γ",,kynurenine production,80.9%
CCCCC[S+]([O-])c1n[nH]c(N)n1 (stereo not shown),human THEMIS domain,"binding, affinity selection mass spectrometry",,,relative to: other proteins in batch,log fold enrichment,0.00794
O=C(NN=Cc1ccc(C[n+]2ccccc2)cc1)c1ccc2ccc3ccc(C(=O)NN=Cc4ccc(C[n+]5ccccc5)cc4)nc3c2n1.[Br-].[Br-],22CTA telomeric G4-DNA antiparallel,FRET melting,,"1 µM, K10 buffer, DNA 0.2 µM, added: ds26 10 µM",,ΔTm,35.9 ± 0.6 °C
N=C(N)NCCC[C@@H](NC(=O)CCOCCOCCNC(=O)[C@H](CCCCNC(=O)CC[C@H](NC(=O)c1ccc(NCc2cnc3nc(N)[nH]c(=O)c3n2)cc1)C(=O)O)NC(=O)CO/N=C/[C@H](F)[C@@H](O)[C@H](O)[C@H](O)CO)C(=O)NCC(=O)N[C@H](CC(=O)O)C(N)=O [fluorine-18 labelled],RGD-binding integrins,"binding, saturation binding",MDA-MB-231,"60 min, 4 °C",,Kd,51 nM
O=C(C#Cc1cn(Cc2ccccc2)c(=O)[nH]c1=O)NCc1ccccc1,MMP-3,"inhibitor, colorimetric",,20 µM,,remaining MMP-3 activity,96 ± 4%
COc1cc(-c2cn(C)c(=O)c3cnccc23)cc(OC)c1CN1CCN(CCCCCOc2cc(-c3scnc3C)ccc2CNC(=O)[C@@H]2C[C@@H](O)CN2C(=O)[C@@H](NC(=O)C2(F)CC2)C(C)(C)C)CC1,BRD9 and VHL-elongin C-elongin B,SPR,immobilized BRD9,,relative to: binary KD over ternary KD,cooperativity alpha,0.6
Cc1cc(Br)cc2oc(C(=O)NS(=O)(=O)c3ccccc3-c3ccccc3)cc12,"estrogen receptor alpha, human",reporter gene,MCF7-MVLN,24 h,,IC50,> 20000 nM
C=CC[C@@]1(C)C(=O)[C@H](C)[C@@H](O)[C@@H](C)CCC/C(COC(=O)C=C)=C\C[C@@H](/C(C)=C/c2csc(C)n2)OC(=O)C[C@@H]1O,tubulin,"tubulin assembly, stimulator",cell-free,,,EC50,583 ± 64 nM
c1coc(-c2n[nH]cc2-c2ccnc3ccccc23)c1,SKY1 (Candida albicans),"kinase binding, MIB/MS competition",Candida albicans lysate,1 µM,relative to: DMSO,log2 fold change,0.26
O=C(O)[C@@H]1CS[C@H](c2ccccc2O)N1C(=O)CCS,aminopeptidase W (pig),"enzyme activity, inhibitor",,,,IC50,1600 nM
C#Cc1cc(-c2cc(Nc3nc(N[C@@H](C)c4ccc(F)cn4)ncc3Cl)n[nH]2)ccc1C=O,"RET R921P, human","kinase activity, inhibitor",,0.2 µM,,inhibition,11.7% and 12.8%
[Ca+2],human TRPA1,"ion current, two-electrode voltage clamp",Xenopus oocytes,"+80 mV, added: AITC",,desensitization time constant,10.1 s and 13.5 s and 6.87 s and 6.15 s and 19 s
O=S(=O)(c1ccccc1)N(CC(F)(F)F)c1ccc(C(O)(C(F)(F)F)C(F)(F)F)cc1,LXR-alpha,"reporter gene, agonist",THP-1 luciferase reporter,24 h,,EC50,79 ± 1.1 nM
COc1cc(-c2cc(-c3ccc(N4CCNCC4)cc3)cnc2C)cc(OC)c1OC,human CK1,"enzyme activity, inhibitor",,1 µM,,inhibition,7%
C=CCOC/C1=C/C[C@@H](/C(C)=C/c2csc(C)n2)OC(=O)C[C@H](O)[C@@](C)(CC=C)C(=O)[C@H](C)[C@@H](O)[C@@H](C)CCC1,tubulin,"tubulin assembly, stimulator",cell-free,,,EC50,540 ± 70 nM
CC(=O)NCCCC[C@H](NC(=O)[C@H](CC(=O)O)NC(=O)[C@H](CO)NC(C)=O)C(=O)Nc1ccc2c(C)cc(=O)oc2c1,human Y386F mutant enzyme,"substrate, fluorogenic",,,,kcat,0.06 ± 0.02 s⁻¹
CNC(=O)[C@@H]1CC[C@@H](n2c(-c3ccc4cnccc4c3)nc3ccc(C(=O)NCc4cccc(C(N)=O)c4)cc32)C1,human FLT3 ITD/F691L,"binding, KINOMEscan",,1000 nM,lower = stronger binding,percent of control,100%
CC[S+]([O-])c1nc(-c2ccccc2)cc(C(F)(F)F)n1 (stereo not shown),transportin-1/2,"FUS nuclear import, high content imaging",HeLa Kyoto reporter,"0.5 µM, 2 h",,cells with nuclear reporter,94.3% and 94.8%
C[C@H](CS)C(=O)N1CSC[C@H]1C(=O)O,aminopeptidase W (pig),"enzyme activity, inhibitor",,,,IC50,17700 nM
COCCc1ccc2cc(C(=O)NS(=O)(=O)c3ccccc3-c3ccccc3)oc2c1,"estrogen receptor alpha, human",reporter gene,MCF7-MVLN,24 h,,IC50,> 15600 nM
Cc1cc(F)cc2c(CCC(=O)N[C@@H]3C(=O)NC[C@H]3O)c(-c3ccc(F)cc3)[nH]c12,"GABAA chloride channel, TBOB site",binding,,10 µM,,inhibition,-5%
O=C(O)CCCOc1cccc(CNC(=O)C#Cc2cn(Cc3ccc(C(=O)O)cc3)c(=O)[nH]c2=O)c1,MMP-3,"inhibitor, FRET",,10 µM,,remaining MMP-3 activity,102 ± 1%
O=C(Nc1ccn(Cc2ccc(O)cc2C(F)(F)F)n1)c1c(F)cccc1F,human GABA-A receptor,"receptor activity, antagonist",,,,IC50,> 10000 nM
COc1cccc(CNC(=O)C#Cc2cn(Cc3ccc(C(=O)O)cc3)c(=O)[nH]c2=O)c1,MMP-7,"inhibitor, colorimetric",,20 µM,,remaining MMP-7 activity,107 ± 23%
CCCCCCCC(=O)OC[C@H](COP(=O)(O)O[C@@H]1[C@H](O)[C@H](O)[C@@H](OP(=O)(O)O)[C@H](OP(=O)(O)O)[C@H]1O)OC(=O)CCCCCCC,Kv7.2/Kv7.3(EEE) mutant channel,activator,,"model 4, E2 and E3 fixed to wild type",,maximal open probability,0.816
Nc1ncnc2c1ncn2[C@@H]1O[C@H](COP(=O)(O)OP(=O)(O)OP(=O)(O)O)[C@@H](O)[C@H]1O,human Kir6.2,"KATP channel current, inhibitor, inside-out patch clamp",transfected HEK-293T,,,IC50,61100 nM
Cc1c[nH]c(=O)[nH]c1=O,,"binding, MIDAS equilibrium dialysis LC-MS",A2AR-BRIL thermostabilized,concentration not given,relative to: no-protein control,log2 fold change,0.327
C=CC(=O)Nc1cc(Nc2nccc(-c3cn(C)c4ccccc34)n2)c(OC)cc1N(C)CCN(C)C,DUSP4 human,"cysteine engagement, chemoproteomic profiling, refers to: DUSP4 peptide 244-252",NCI-H2073,"10 µM, 2 h",relative to: DMSO,log2 fold change,1.6
O=C(Nc1c[nH]nc1C(=O)NC1CCNCC1)c1cc(F)cc(F)c1,human FLT3 ITD F691L,scanMAX,,1 µM,relative to: control,remaining binding,97%
O=C(NS(=O)(=O)c1ccccc1-c1ccccc1)c1cc2ccc(OCCO)cc2o1,"estrogen receptor alpha, human",reporter gene,MCF7-MVLN,24 h,,IC50,> 20000 nM
C=C(F)C(=O)N1CCN(c2nc(OC[C@@H]3CCCN3C)nc3c2CCN(c2cccc4cccc(Cl)c24)C3)C[C@@H]1CC#N,NRAS wild type (human),"SOS-mediated nucleotide exchange, inhibitor",,concentration not given,,inhibition,inactive
C[C@H](O)[C@@H](O)[C@@H](O)[C@H](O)C=O,,"binding, MIDAS equilibrium dialysis LC-MS",A2AR-BRIL thermostabilized,concentration not given,relative to: no-protein control,log2 fold change,-0.205
CC1CCCN(C(=O)c2cc3ncccn3n2)C1 (stereo not shown),human THEMIS domain,"binding, affinity selection mass spectrometry",,,relative to: other proteins in batch,log fold enrichment,-0.108
O=C(NC[C@H](O)CO)c1ccncc1Nc1ccc(I)cc1F,IDO1 human,inhibitor,A-431,"1 µM, added: IFN-γ",,kynurenine production,82.8%
CN(C(=O)n1cnc(-c2ccc[n+]([O-])c2)c1)C1CCCCC1,ATP-sensitive potassium channel,,,concentration not given,,inhibition,1.07%
O=C(NS(=O)(=O)c1ccccc1-c1ccccc1)c1cc2ccc(N3CCOCC3)cc2o1,"estrogen receptor alpha, human",reporter gene,MCF7-MVLN,24 h,,IC50,> 20000 nM
Cc1cccc(N2CC(C(=O)O)CC2=O)c1 (stereo not shown),human THEMIS domain,"binding, affinity selection mass spectrometry",,,relative to: other proteins in batch,log fold enrichment,0.0023

# Some of these lines once more:
SMILES,tested on,test,system,conditions,how to read,quantity,value
COc1cccc(CNC(=O)C#Cc2cn(Cc3ccc(C(=O)O)cc3)c(=O)[nH]c2=O)c1,MMP-7,"inhibitor, colorimetric",,20 µM,,remaining MMP-7 activity,107 ± 23%
Cc1cc(Br)cc2oc(C(=O)NS(=O)(=O)c3ccccc3-c3ccccc3)cc12,"estrogen receptor alpha, human",reporter gene,MCF7-MVLN,24 h,,IC50,> 20000 nM
Cc1cccc(N2CC(C(=O)O)CC2=O)c1 (stereo not shown),human THEMIS domain,"binding, affinity selection mass spectrometry",,,relative to: other proteins in batch,log fold enrichment,0.0023
CCS(=O)(=O)c1nc(C2CC2)cc(C(F)(F)F)n1,transportin-1/2,"FUS nuclear import, high content imaging",HeLa Kyoto reporter,"0.158 µM, 2 h",,cells with nuclear reporter,93.5% and 91.9%
